Experimental data pooled from the literature.
Compare with care: the assays were run in different laboratories. ± marks the error that the study gave.
BCHE: Cholinesterase (BCHE, Homo sapiens, UniProt P06276)
UniProt P06276, sequence (whole entry, looked up): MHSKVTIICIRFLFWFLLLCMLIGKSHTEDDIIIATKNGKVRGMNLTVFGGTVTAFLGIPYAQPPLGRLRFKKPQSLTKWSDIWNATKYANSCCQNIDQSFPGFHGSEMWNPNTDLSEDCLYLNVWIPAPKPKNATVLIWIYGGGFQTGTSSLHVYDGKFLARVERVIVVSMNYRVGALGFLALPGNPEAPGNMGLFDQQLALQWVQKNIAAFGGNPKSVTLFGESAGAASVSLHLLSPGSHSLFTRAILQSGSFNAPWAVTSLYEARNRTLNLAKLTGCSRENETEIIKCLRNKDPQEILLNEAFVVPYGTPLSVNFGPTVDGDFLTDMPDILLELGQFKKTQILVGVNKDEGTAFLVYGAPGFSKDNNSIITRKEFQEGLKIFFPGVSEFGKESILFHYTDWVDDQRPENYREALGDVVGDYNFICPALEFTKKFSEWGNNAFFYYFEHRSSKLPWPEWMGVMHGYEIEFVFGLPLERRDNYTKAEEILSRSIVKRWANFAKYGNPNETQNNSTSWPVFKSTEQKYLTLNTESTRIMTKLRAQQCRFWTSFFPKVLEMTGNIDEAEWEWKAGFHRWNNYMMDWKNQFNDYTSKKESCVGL
ilvC: Ketol-acid reductoisomerase (NADP(+)) (ilvC, Mycobacterium tuberculosis, UniProt P9WKJ7)
UniProt P9WKJ7, sequence (whole entry, looked up): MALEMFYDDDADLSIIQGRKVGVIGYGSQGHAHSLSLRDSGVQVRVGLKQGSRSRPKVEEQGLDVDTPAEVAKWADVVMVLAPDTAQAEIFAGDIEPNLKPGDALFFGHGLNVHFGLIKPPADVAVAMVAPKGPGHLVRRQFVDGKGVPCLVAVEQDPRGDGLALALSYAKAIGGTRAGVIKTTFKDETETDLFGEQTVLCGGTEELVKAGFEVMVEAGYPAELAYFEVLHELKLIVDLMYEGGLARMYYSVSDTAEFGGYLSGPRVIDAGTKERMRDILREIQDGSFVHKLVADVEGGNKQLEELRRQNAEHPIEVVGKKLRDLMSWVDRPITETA
gag-pol integrase with LEDGF/p75: Gag-Pol polyprotein, integrase with LEDGF/p75 (gag-pol, Human immunodeficiency virus 1, UniProt P12497)
gag-pol integrase: Gag-Pol polyprotein, integrase (gag-pol, Human immunodeficiency virus 1, UniProt P12497)
UniProt P35462, sequence (whole entry, looked up): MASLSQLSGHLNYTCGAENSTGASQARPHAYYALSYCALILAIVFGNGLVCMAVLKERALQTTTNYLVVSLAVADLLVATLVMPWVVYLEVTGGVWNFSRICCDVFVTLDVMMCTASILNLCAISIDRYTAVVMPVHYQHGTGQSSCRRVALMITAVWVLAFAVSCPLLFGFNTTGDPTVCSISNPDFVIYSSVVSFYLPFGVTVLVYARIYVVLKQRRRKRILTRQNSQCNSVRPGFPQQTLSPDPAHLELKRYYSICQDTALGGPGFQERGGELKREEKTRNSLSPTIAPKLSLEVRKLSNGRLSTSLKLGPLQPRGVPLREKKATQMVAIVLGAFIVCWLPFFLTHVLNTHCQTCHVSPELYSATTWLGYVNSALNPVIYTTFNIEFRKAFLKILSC
UniProt Q61327, sequence (whole entry, looked up): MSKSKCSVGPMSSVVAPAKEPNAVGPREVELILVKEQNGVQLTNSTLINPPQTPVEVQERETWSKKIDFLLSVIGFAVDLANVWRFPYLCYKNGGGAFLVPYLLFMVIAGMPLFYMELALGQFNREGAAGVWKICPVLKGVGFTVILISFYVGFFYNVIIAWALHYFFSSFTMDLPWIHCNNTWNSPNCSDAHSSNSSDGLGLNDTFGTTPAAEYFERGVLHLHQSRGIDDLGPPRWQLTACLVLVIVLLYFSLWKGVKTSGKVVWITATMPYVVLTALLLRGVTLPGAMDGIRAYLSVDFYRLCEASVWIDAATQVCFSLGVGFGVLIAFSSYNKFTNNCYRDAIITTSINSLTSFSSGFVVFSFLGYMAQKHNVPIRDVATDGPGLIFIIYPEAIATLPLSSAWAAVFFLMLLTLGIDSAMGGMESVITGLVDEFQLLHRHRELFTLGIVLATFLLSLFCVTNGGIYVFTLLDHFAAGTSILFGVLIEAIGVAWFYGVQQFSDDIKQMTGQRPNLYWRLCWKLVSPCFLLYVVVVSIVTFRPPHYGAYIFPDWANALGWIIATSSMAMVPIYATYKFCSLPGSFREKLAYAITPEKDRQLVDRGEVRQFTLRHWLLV
UniProt Q08345, sequence (whole entry, looked up): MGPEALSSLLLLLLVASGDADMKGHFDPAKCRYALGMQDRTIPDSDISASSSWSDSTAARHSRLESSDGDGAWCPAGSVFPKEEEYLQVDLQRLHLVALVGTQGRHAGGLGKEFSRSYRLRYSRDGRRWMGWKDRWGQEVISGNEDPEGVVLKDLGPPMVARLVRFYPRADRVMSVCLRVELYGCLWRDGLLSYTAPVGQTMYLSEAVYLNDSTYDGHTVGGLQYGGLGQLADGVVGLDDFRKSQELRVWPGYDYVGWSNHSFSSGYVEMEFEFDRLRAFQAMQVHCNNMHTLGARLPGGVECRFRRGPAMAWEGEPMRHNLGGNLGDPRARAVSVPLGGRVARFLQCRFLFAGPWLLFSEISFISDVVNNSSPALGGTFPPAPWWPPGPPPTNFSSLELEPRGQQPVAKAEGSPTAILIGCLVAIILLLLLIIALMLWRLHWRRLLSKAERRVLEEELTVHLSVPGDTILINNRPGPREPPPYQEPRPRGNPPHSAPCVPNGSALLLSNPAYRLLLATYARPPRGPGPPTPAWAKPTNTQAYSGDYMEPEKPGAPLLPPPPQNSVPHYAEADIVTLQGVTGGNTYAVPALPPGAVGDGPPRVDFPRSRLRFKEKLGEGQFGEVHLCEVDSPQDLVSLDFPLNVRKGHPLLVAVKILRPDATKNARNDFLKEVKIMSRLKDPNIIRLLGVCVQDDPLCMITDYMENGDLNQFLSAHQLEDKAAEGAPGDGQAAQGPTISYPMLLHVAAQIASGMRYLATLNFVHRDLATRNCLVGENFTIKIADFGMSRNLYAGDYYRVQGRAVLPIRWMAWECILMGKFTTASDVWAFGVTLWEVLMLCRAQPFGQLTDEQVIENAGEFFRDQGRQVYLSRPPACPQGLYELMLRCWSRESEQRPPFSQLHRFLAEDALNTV
UniProt Q9JMD7, sequence (whole entry, looked up): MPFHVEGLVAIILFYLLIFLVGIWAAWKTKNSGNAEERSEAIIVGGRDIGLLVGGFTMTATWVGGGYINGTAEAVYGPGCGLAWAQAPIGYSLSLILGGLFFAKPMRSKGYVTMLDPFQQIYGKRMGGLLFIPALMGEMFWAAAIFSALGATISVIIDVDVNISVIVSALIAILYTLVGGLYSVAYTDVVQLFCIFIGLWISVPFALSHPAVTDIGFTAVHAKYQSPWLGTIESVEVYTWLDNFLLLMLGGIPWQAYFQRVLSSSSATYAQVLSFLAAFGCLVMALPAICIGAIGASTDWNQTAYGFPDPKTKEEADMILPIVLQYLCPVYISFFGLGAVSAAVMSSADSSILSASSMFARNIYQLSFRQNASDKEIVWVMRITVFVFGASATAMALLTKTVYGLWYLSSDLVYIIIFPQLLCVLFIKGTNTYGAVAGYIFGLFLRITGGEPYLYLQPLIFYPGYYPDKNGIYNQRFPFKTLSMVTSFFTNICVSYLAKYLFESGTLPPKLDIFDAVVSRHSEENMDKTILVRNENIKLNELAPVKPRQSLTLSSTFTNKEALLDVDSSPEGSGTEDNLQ

Nc1c2c(nc3c1CCC3)CCCC2
IC50 (BCHE; inhibitor; with Triton): 0.96 ± 0.66 µM

Cc1nc2[nH]c(=O)n(O)c(=O)c2[nH]1
Ki (ilvC; inhibitor; 30 min preincubation, with: NADPH): 134 ± 56.6 µM

CO[C@H]1C[C@@H]2CC[C@@H](C)[C@@](O)(O2)C(=O)C(=O)N2CCCC[C@H]2C(=O)O[C@H]([C@H](C)C[C@@H]2CC[C@@H](OC(=O)NCCOCCOCCOCCOCCOCCOCCOCCOCCC(=O)N3CCc4cc(Cn5nc(-c6ccc7oc(N)nc7c6)c6c(N)ncnc65)ccc4C3)[C@H](OC)C2)C[C@@H](O)[C@H](C)/C=C(\C)[C@@H](O)[C@@H](OC)C(=O)[C@H](C)C[C@H](C)/C=C/C=C/C=C/1C
TRAE incidence (phase 1 dose escalation, refers to: diarrhoea; advanced solid tumour patients; intravenous, 12 mg weekly, grade ≥3): 0%

Cc1nc2[nH]c(=O)n(OS(=O)(=O)c3ccccc3)c(=O)c2s1
Ki (ilvC; inhibitor; 30 min preincubation, with: NADPH): > 50 µM

Cc1[nH]c(C)c(S(=O)(=O)Nc2ccc(S(F)(F)(F)(F)F)cc2)c1C(=O)N1CCC(F)(F)C1
Kb (DRD3 (Homo sapiens, UniProt P35462); β-arrestin recruitment, allosteric modulator, operational model of allostery; with: pramipexole): 0.81 µM

C[C@@H](C1=C(CCN(C)C)Cc2ccccc21)c1ccccn1
IC50 (BCHE; inhibitor; with Triton): 5.99 ± 1.5 µM

Cc1cc(C)nc(N/N=C/c2cccc(O)c2)n1
IC50 (gag-pol integrase with LEDGF/p75; LEDGF/p75-integrase interaction, inhibitor, AlphaScreen): > 50 µM

O=c1[nH]c2nc(-c3ccncc3)sc2c(=O)n1O
Ki (ilvC; inhibitor; 30 min preincubation, with: NADPH): 0.24 ± 0.03 µM

C[C@H]1CN(c2n[nH]c3nc(N[C@H]4CC[C@H](NS(=O)(=O)CCC(F)(F)F)CC4)ncc23)CCO1
IC50 (DDR1 (Homo sapiens, UniProt Q08345); biochemical): ≥ 20 µM

O=C(Nc1cnccc1Cl)N1CCN(Cc2ccc3c(c2)OC(F)(F)O3)CC1
inhibition of binding (High affinity choline transporter 1 (Rattus norvegicus, UniProt Q9JMD7); radioligand binding; 50 µM, rat transporter, with: [3H]hemicholinium-3): 0%

COc1ccc(NC(=O)N2CCCCN3C[C@H](c4ccc(C#Cc5ccccc5)cc4)[C@@H]3C2)cc1
EC50 (Cryptosporidium parvum; luciferase; HCT-8, transgenic wild-type PheRS; 48 h): 0.0408 µM

O=c1[nH]c2nc(-c3ccccc3)sc2c(=O)n1O
Ki (ilvC; with: NADPH pre-incubation 30 min): 0.0494 ± 0.005 µM

C=CC/N=c1/scc(-c2ccccc2Br)n1/N=C/c1ccccn1
IC50 (gag-pol integrase; 3'-processing activity, inhibitor; wild-type integrase): > 100 µM

O=C(CN1C2=NCCN2c2ccccc21)c1ccc(-c2ccccc2)cc1
IC50 (BCHE; inhibitor): 4.68 ± 0.3 µM

CC(=O)c1ccc(/N=N/c2ccc(C[P+](c3ccccc3)(c3ccccc3)c3ccccc3)cc2)cc1
IC50 (gag-pol integrase; strand transfer activity, inhibitor; wild-type integrase): > 100 µM

CCC(=O)N1CCN(C(=O)c2ccccc2)CC1
IC50 (Plasmodium falciparum; W2): 3.98 µM

CCN(CC)c1ccc(/C=C2\CCC(/C=N/N=C/c3cccnc3)=C2N2CCOCC2)cc1
IC50 (gag-pol integrase; strand transfer activity, inhibitor; wild-type integrase): > 100 µM

Nc1c2c(nc3ccccc13)CCCC2O (centres unmarked)
IC50 (BCHE; inhibitor): 0.21 ± 0.01 µM

C/C(=N\Nc1ccc(S(=O)(=O)Nc2ccccc2)cc1[N+](=O)[O-])c1cc(O)ccc1O
IC50 (gag-pol integrase; 3'-processing activity, inhibitor; wild-type integrase): > 100 µM

CC[C@H](NC(=O)[C@H](CS(=O)(=O)CC1CC1)N[C@@H](c1ccc(F)cc1)C(F)(F)F)C(=O)C(=O)NC1CC1
IC50 (BCHE; inhibitor; with Triton): 19.3 µM

c1ccc(/N=N/C(=N/Nc2ccccc2)c2ccccc2)cc1
IC50 (gag-pol integrase; 3'-processing activity, inhibitor; wild-type integrase): > 100 µM

CN1CCC[C@@H]1Cc1c[nH]c2ccc(CCS(=O)(=O)c3ccccc3)cc12
IC50 (BCHE; inhibitor, fluorometric): 1.82 ± 1.13 µM

NCCc1ccc(Oc2ccc(O)cc2)c(I)c1
IC50 (Slc6a3 (Mus musculus, UniProt Q61327); binding; TAAR1 knock-out mice, striatal synaptosomes; with: [3H]CFT 1 nM): 0.81 µM

CCOC(=O)C(=O)c1csc(NC=O)n1
IC50 (BCHE; inhibitor): 3.85 µM

C[C@H]1c2cccc(O)c2C(=O)C2=C(O)[C@]3(O)C(=O)C(C(N)=O)=C(O)[C@@H](N(C)C)[C@@H]3[C@@H](O)[C@@H]21
IC50 (Plasmodium falciparum; HB3): 5.01 µM

O=C(N/N=C/c1ccc(Cl)cc1Cl)c1cnccn1
IC50 (gag-pol integrase; strand transfer activity, inhibitor; wild-type integrase): > 100 µM

COc1cc(Nc2ncc(F)c(Nc3ccc4c(n3)NC(=O)C(C)(C)O4)n2)cc(OC)c1OC
IC50 (Voltage-dependent N-type calcium channel subunit alpha-1B (Homo sapiens, UniProt Q00975)): > 10 µM

NNC(=O)c1cc(-c2ccc(Cl)cc2)n[nH]1
IC50 (gag-pol integrase with LEDGF/p75; LEDGF/p75-integrase interaction, inhibitor, AlphaScreen): > 50 µM

c1ccc2sc(C3(N4CCCCC4)CCCCC3)cc2c1
IC50 (BCHE; inhibitor; with Triton): 8.63 ± 3.08 µM
